{"data": "Earlier results as cited in several papers", "cell line": "MCF7", "note": "Numbers after ± are the reported error."}
{"SMILES": "COC1C(C#N)=C(/N=C/c2cccc(Br)c2)Oc2nc(Nc3ccc(S(N)(=O)=O)cc3)sc21 (centres unmarked)", "effect on": "cell viability", "method": "MTT", "IC50 [nM]": 9270}
{"SMILES": "COc1cc(Nc2nnc(-c3cc4ccccc4[nH]3)s2)cc(OC)c1OC", "effect on": "cytotoxicity", "IC50 [nM]": 910}
{"SMILES": "COc1ccc(-n2cc(Cn3c(/C=C4\\SC(=O)NC4=O)nc4ccccc43)nn2)cc1", "effect on": "cytotoxicity", "IC50 [nM]": 2900}
{"SMILES": "Cn1c(/C=C2\\SC(=O)N(CCc3noc(-c4cc(C#N)cc(C#N)c4)n3)C2=O)nc2ccccc21", "effect on": "cell growth", "IC50 [nM]": "1320 ± 50"}
{"SMILES": "Oc1cccc(-c2cccc(O)n2)n1.[Cl-].[Cl-].[Ru+2].c1cnc2c(c1)c1c(c3cccnc32)OCCO1.c1cnc2c(c1)c1c(c3cccnc32)OCCO1", "effect on": "cell viability", "added": "blue light 450 nm, 1 h", "IC50 [nM]": 4100}
{"SMILES": "COc1ccc(-c2ccc(NC(=O)Nc3ccc(Cl)c(C(F)(F)F)c3)c(C)n2)cc1", "time": "72 h", "IC50 [nM]": 110}
{"SMILES": "N#Cc1ccc(-c2csc(N3N=C(c4ccc(N5CCOCC5)cc4)CC3c3ccc(Cl)cc3)n2)cc1 (centres unmarked)", "effect on": "cell growth", "method": "MTT", "IC50 [nM]": 8050}
{"SMILES": "COc1c(-c2cc(-c3ccc(C)o3)c(C#N)c(N)n2)c(O)c(Br)c2occc12", "IC50 [nM]": 1180}
{"SMILES": "CC(=NN=C1SCC(=O)N1Cc1cn(C2OCC(O)C(O)C2O)nn1)c1cccnc1 (centres unmarked)", "effect on": "cell proliferation", "IC50 [nM]": 150}
{"SMILES": "C=CCSc1nnc(-c2cc3ccccc3[nH]2)n1/N=C/c1c[nH]c2ccccc12", "effect on": "cytotoxicity", "IC50 [nM]": 1180}
{"SMILES": "NS(=O)(=O)c1ccc(CC/N=C\\c2ccnc3ccccc23)cc1", "effect on": "cell growth", "IC50 [nM]": 8420}
{"SMILES": "COc1ccc(NC(=O)Nc2ccc(-c3ccc(OC)c(OC)c3)nc2C)cc1", "time": "48 h", "IC50 [nM]": 1880}
{"SMILES": "CCn1c(SCC(=O)Nc2cccc(C(=O)/C=C/c3ccc(OC)cc3)c2)nc2ccccc2c1=O", "effect on": "cytotoxicity", "IC50 [nM]": "3600 ± 600"}
{"SMILES": "CC(=O)O[C@H]1CC[C@@]2(C)C(CC[C@]3(C)[C@@H]2CC=C2[C@@H]4[C@@H](C)[C@H](C)CC[C@]4(C(=O)N4CCN(C(=O)c5cccc(C(=C6C=CC(=[N+](C)C)C=C6)c6ccc(N(C)C)cc6)c5)CC4)CC[C@]23C)C1(C)C (some centres unmarked)", "IC50 [nM]": 1000}
{"SMILES": "C/C(=N\\NC(=O)c1ccc([N+](=O)[O-])cc1)c1ccc(NC(=O)c2cccnc2)cc1", "IC50 [nM]": 2100}
{"SMILES": "Oc1cccc(-c2cccc(O)n2)n1.[Cl-].[Cl-].[Ru+2].c1cnc2c(c1)ccc1cccnc12.c1cnc2c(c1)ccc1cccnc12", "effect on": "cell viability", "added": "blue light 450 nm, 1 h", "IC50 [nM]": 180000}
{"SMILES": "COc1ccc2nc(Cl)c(C3CC(c4ccc(C)cc4)=NN3c3nc(-c4ccc(Cl)cc4)cs3)cc2c1 (centres unmarked)", "effect on": "cell growth", "IC50 [nM]": 227}
{"note": "A few entries again:"}
{"SMILES": "COc1ccc(NC(=O)Nc2ccc(-c3ccc(OC)c(OC)c3)nc2C)cc1", "time": "48 h", "IC50 [nM]": 1880}
